Results collected from several papers.
Numbered parts are unrelated; each lists some results of a single study.

Set 1
Target: Histone acetyltransferase KAT6A, both winged helices, GST fusion (KAT6A, Homo sapiens, UniProt Q92794, residues 1-181)
Technique: protein binding microarray
Molecule type: double-stranded DNA, one strand shown
Matrix: in vitro
Concentration: not given
Setting: 8-mer, flanks averaged, mean of 2 arrays, mostly near background
Relative to: not given
Direction: higher = stronger binding
Construct (chain): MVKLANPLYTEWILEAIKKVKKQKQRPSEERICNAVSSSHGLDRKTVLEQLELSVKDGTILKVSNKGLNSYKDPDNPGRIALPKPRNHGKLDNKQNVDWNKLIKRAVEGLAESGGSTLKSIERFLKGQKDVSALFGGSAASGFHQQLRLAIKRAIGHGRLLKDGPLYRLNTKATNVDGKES
Oligonucleotide | E-score
AAAGGCCC | 0.112
ATGAGTTA | -0.0736
TATCCAAA | -0.0297
GACTGGCC | -0.0744
ACTCTCAT | -0.117
AATGCGTC | 0.144
ATTCGAAA | -0.0468
CAGCGCTA | 0.253

Set 2
Target: Interferon regulatory factor 3, full length, phosphomimetic (IRF3, Homo sapiens, UniProt Q14653, residues 1-427, S386D/S396D/S398D/S402D/T404D/S405D)
Technique: protein-binding microarray
Molecule type: double-stranded DNA, one strand shown
Matrix: in vitro
Concentration: 2540 nM top
Setting: 60-bp whole probe
Together with: salmon DNA 0.4 mg/ml
Relative to: random background probes
Direction: higher = stronger binding
All sequences stand within: GCCTAGCAC … GTCTTGATTCGCTTGACGCTGCTG
Target sequence (chain): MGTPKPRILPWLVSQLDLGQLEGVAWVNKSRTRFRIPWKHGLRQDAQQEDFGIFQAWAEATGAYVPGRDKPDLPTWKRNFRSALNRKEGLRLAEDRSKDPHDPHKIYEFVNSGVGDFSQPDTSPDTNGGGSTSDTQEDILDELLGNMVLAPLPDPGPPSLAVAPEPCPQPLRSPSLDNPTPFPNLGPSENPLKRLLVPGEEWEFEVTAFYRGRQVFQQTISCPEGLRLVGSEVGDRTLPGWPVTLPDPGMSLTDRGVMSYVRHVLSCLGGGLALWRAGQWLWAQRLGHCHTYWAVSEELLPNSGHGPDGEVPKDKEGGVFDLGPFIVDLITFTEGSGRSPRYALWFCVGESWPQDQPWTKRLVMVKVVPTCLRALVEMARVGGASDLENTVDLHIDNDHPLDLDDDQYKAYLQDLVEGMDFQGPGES
Oligonucleotide | fitted relative affinity [z-score]
TTAGATATCCGGTATCGATTAGTGCTA | 1.18
TTAGGTATCGGTTTCGTTTAGTGCTAG | 7.78
TTAGGTATTGGTCTCGGTTAGTGCTAG | 0.906
TACGGTTTCGGTATCGGGACGTGCTAG | 8.06
AACGGTTTCGGGTTTCGGGACGTGCTA | 5.71

Set 3
Target: RNA binding protein fox-1 homolog 2, RRM domain, GST-SBP tag (RBFOX2, Homo sapiens, UniProt O43251-10, residues 100-194)
Technique: RNA Bind-n-Seq
Molecule type: RNA
Matrix: in vitro
Concentration: 365 nM
Setting: natural RNA segment, single round, ends assumed
Relative to: no-protein control
Direction: higher = stronger binding
All sequences stand within: GGGAGUUCUACAGUCCGACGAUC … UGGAAUUCUCGGGUGCCAA
Target sequence (chain): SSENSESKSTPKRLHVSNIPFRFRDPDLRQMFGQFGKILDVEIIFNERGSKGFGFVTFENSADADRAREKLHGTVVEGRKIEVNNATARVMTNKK
Oligonucleotide | RBNS enrichment (R)
GAGCACUCCCUACAUGGUAGGUUGUACCAGAGACCUAUGACCCCUGCCUUGUGGUAAACAGCAGGUGUUGGAUCAGAACCAUCGAUUUCCUGGCUGGCACCUGGUGUUGA | 0.294
GCGAGACUCCUUGGUCUCAUUUGCCUUCACUUUGCAUUUGUUAGUGACCUCCACUAACCCCCACUUCCAUGCAUAUUGACGAGGGAUCUAGUCUAAGUAAGAAUGUCUUU | 0.69
AAGACCAUGUGUCCCCCAAUACUUAGAUUUCACCGUACUUUCUGAUGGUGUUUUUAAAAGGCCAAGUGUUGCAAAAGUUUGCACGUGCAACCGUAUAUUAAUCGCCAGUG | 1.26
CUCACGCUGAUGGCUUGGCAGAGCACCUUCGGUUAACUUGCAUCUCCAGAUUGAUUACUCAAGCAGACAGCACACGAAAUACUAUUUUUCUCCUAAUAUGCUGUUUCCAU | 0.31
CAGCUCUCCCCCUCCAUCUUGGGGGGGCGGAGCAGUUGGGCCCAAGCUGCCCGGGAGGGUGGGUGCAGACACAGGCUGAGGACCAGCCCUGGCCCUGCCCCGCCAUCUGC | 0.172
GUCCAGUUUUUCUUUUUCCCUCUCAUAUAUUUGUAACCUGGGUCCUAAACUGACUGAAGAGUUUGUCCUGACUUUAUUAAUUGCAGUCUCACAGAAUGCUCAUCAUUCUC | 0.516
UGCCUUUGCAGUACAUGAAACAUCCCAUUCUUUGUUCUUGAUGGGAUAGGGGUCGUUAUUGUAGCAUAUUUGGUUUCUAAAUCACUGCUUAUUUUUAUUUGCAAUCUCUA | 0.706
GCACACAUCAUCUGUAAGCUGUUUGGUUUUAAAAUACUGUAGAUAAUUAACCAAGGUAGAAUGACCUUGUAAUGUAACUGCUCUUGGGCAAUAUUCUCUGUACAUAUUAG | 1.25
AGAGCCACAGAAUUGCUUUCCUUCCCCGCCUUUGACAUGAGGCCUUCAGUAAAGAGCUACAGAACAUGAGUACAUUGUUAUACCACAGAUUUUUCUUGCAUUAGGGCACA | 1.26

Further values, each from its own experiment
Molecule | target | test | system | setting | scale | endpoint | value
PhoQ, residues 284 288 289 292 302 303 GTAMQF | PhoP, residues 12 14 15 18 19 AYFRS (Escherichia coli, UniProt P23836) | Sort-seq, item: YFP reporter | E. coli | PhoQ-PhoP variant library, together with: 10 µM Mg2+ | relative to: high Mg2+ state, higher = stronger signaling | fold induction | 18.7
